# Assay results pooled from the literature.
# Lines come from different studies, so protocols differ. ± marks the error that the study gave.
Compound,assay,system,conditions,logD
CN[C@@H](C)C(=O)N[C@H](C(=O)N1C[C@@H](NC(=O)COCCOCc2cn(CCNC(=O)CN(Cc3cccs3)C(=O)[C@H](NS(=O)(=O)c3cc4ccc(O)nc4cc3Cl)c3ccccc3OC)nn2)C[C@H]1C(=O)N[C@@H]1CCCc2ccccc21)C1CCCCC1,fast-gradient HPLC,,pH 7.4,2.4
Cc1cccc2c1C1(CCN(C(=O)c3ccc4[nH]ncc4c3)CC1)C(=O)N2CC(=O)NCC(F)(F)F,,,pH 7.4,2.68
COc1ccc2c3c1O[C@H]1C(=O)CC[C@@]4(O)[C@@H](C2)N(CC2CCC2)CC[C@]314,,octanol/buffer,"1 h, pH 7.4",1.68
O=C(CN1CN(c2ccccc2)C2(CCN(C(=O)c3cnc4[nH]ncc4c3)CC2)C1=O)NCC(F)(F)F,,,pH 7.4,1.92
COc1ccccc1C(NS(=O)(=O)c1cc2ccc(O)nc2cc1Cl)C(=O)N(CC(=O)NCCn1cc(COCCOCCNc2cccc3c2C(=O)N(C2CCC(=O)NC2=O)C3=O)nn1)Cc1cccs1 (mixture of isomers),fast-gradient HPLC,,pH 7.4,2.4
N#Cc1c(Cl)ccc2c1C1(CCN(C(=O)c3cnc4[nH]ncc4c3)CC1)C(=O)N2CC(=O)NCC(F)(F)F,,,pH 7.4,2.65
O=C1CC[C@@]2(O)[C@H]3Cc4ccc(O)c5c4[C@@]2(CCN3CCc2ccccc2)[C@H]1O5,,octanol/phosphate buffer,"1 h, pH 6.89, ionic strength 0.15 M",1.47
CSCC[C@@H]1NC(=O)[C@H](CC(N)=O)NC(=O)[C@@H](NC(=O)CCOCCOCCOCCNC(=O)CN2CCN(CC(=O)O)CCN(CC(=O)O)CC2)CSSC[C@@H](C(=O)O)NC(=O)[C@H](C(C)C)NC(=O)[C@H](CCSC)NC(=O)[C@@H]2CCCN2C(=O)[C@H]([C@@H](C)O)NC(=O)[C@H](Cc2c[nH]cn2)NC1=O [gallium-68 labelled],shake-flask,1-octanol/PBS,pH 7.4,-1.34 ± 0.18
CN[C@@H](C)C(=O)N[C@H](C(=O)N1C[C@@H](NC(=O)COCCOCCOCCOCc2cn(CCNC(=O)CN(Cc3cccs3)C(=O)[C@H](NS(=O)(=O)c3cc4ccc(O)nc4cc3Cl)c3ccccc3OC)nn2)C[C@H]1C(=O)N[C@@H]1CCCc2ccccc21)C1CCCCC1,fast-gradient HPLC,,pH 7.4,2.5
COc1ccc2c3c1O[C@H]1[C@H](O)CC[C@H]4[C@@H](C2)N(C)CC[C@@]341,,octanol/buffer,"1 h, pH 7.4",-0.14
Cc1n[nH]c(C)c1CCCOc1cc(OCCCCCCNCCOCCOCCn2cc(CNc3ccc(C(=O)O)cc3)nn2)cc(C(=O)O)c1,,,pH 7.4,-1.6
O=C(CN1C(=O)C2(CCN(C(=O)c3cnc4[nH]ncc4c3)CC2)c2c(Br)cccc21)NCC(F)(F)F,,,pH 7.4,2.6
CN1CC[C@]23c4c5ccc(O)c4O[C@H]2[C@H](O)C=C[C@@]3(O)[C@H]1C5,,octanol/buffer,"1 h, pH 7.4",-0.82
O=C(CN1C(=O)C2(CCN(C(=O)c3ccc4[nH]ncc4n3)CC2)c2c(Br)cccc21)NCC(F)(F)F,,,pH 7.4,2.72
COc1ccc2c3c1O[C@H]1C(=O)CC[C@@]4(O)[C@@H](C2)N(CCc2ccccc2)CC[C@]314,,octanol/phosphate buffer,"1 h, pH 5.74, ionic strength 0.15 M",1.24
COc1ccccc1C(NS(=O)(=O)c1cc2ccc(O)nc2cc1Cl)C(=O)N(CC(=O)NCCn1cc(COCCCCCNc2cccc3c2C(=O)N(C2CCC(=O)NC2=O)C3=O)nn1)Cc1cccs1 (mixture of isomers),fast-gradient HPLC,,pH 7.4,2.8
